Results gathered from unrelated publications.
Protocols differ between the studies behind these lines. ± gives the spread as reported.

| SMILES | assay | system | conditions | how to read | endpoint | value |
| --- | --- | --- | --- | --- | --- | --- |
| CCCCC(CC)COC(=O)CC(C(=O)OCC(CC)CCCC)S(=O)(=O)O.CCCSc1ccc2[nH]c(NC(=O)OC)nc2c1 (stereo not drawn) | visual inspection | Labrasol | – | – | solubility | ~30 mg/mL |
| CC[C@H](C)[C@H](NC(=O)[C@H](CCCNC(=N)N)NC(=O)[C@H](CCCNC(=N)N)NC(=O)[C@H](CC(C)C)NC(=O)[C@@H](N)Cc1c[nH]c2ccccc12)C(=O)NCC(=O)N[C@@H](CCCCN)C(=O)NCC(=O)N[C@H](C(=O)N[C@@H](CCCCN)C(=O)N[C@H](C(=O)N[C@H](C(=O)NCC(=O)NCC(=O)N[C@@H](C)C(=O)N[C@@H](C)C(=O)N[C@@H](CC(C)C)C(=O)N[C@@H](CC(=O)O)C(=O)N[C@@H](Cc1c[nH]cn1)C(=O)N[C@@H](CC(C)C)C(N)=O)[C@@H](C)CC)[C@@H](C)CC)C(C)C | – | zebrafish embryos 4 hpf, E3 medium | 24 h | – | chronic toxic concentration | 25 µM |
| CN1Cc2cc(Cl)ccc2-n2c(nnc2C2CCN(c3cccc([18F])n3)CC2)C1 | – | C57BL/6 mouse male, bone | intravenous, 3.7 MBq, 60 min | – | tissue uptake | 10.4 ± 3.5 %ID/g |
| O=C([O-])CNC(=O)CN1CCN(CC(=O)NCC(=O)[O-])CCN(CC(=O)NCC(=O)[O-])CCN(CC(=O)NCC(=O)[O-])CC1.[177Lu+3] | – | Sprague-Dawley rat, muscle | intravenous (tail vein), dose not given, 2 h | – | tissue uptake | 0.003 ± 0.001 % injected dose/g |
| CC(C)Oc1c(NC(=O)c2ccc(NC(=O)[C@H](CC(N)=O)NC(=O)c3ccc(/N=N/c4ccccc4)cc3)cc2)ccc(C(=O)N/N=C/c2ccc(C(=O)O)cc2)c1O | absorbance | DMSO | 45 °C, PSS to ground state relaxation | – | thermal half-life | 5.7 h |
| CC(CCC(=O)NCC(=O)O)C1CCC2C3C(O)CC4CC(OC5OC(C(=O)O)C(O)C(O)C5O)CCC4(C)C3CCC12C (stereo not drawn) | – | human men | dose not given, SLCO1B1 *5/*35 | – | plasma concentration | 69 ng/mL |
| CSCC[C@H](N)C(=O)N[C@@H](C)C(=O)N[C@@H](Cc1c[nH]c2ccccc12)C(=O)N[C@@H](Cc1c[nH]cn1)C(=O)N[C@@H](CC(=O)O)C(=O)N[C@@H](CC(=O)O)C(=O)N[C@@H](CCC(=O)O)C(=O)N[C@@H](CCC(=O)O)C(=O)N[C@@H](Cc1ccccc1)C(=O)N[C@@H](C)C(=O)N[C@@H](CCCNC(=N)N)C(=O)N[C@@H](CCCNC(=N)N)C(=O)N[C@@H](CCCNC(=N)N)C(=O)N[C@@H](CCCNC(=N)N)C(=O)NCCCCCC(=O)NCCCCC(NC(=O)CCCCCNC(=O)[C@H](CCCNC(=N)N)NC(=O)[C@H](CCCNC(=N)N)NC(=O)[C@H](CCCNC(=N)N)NC(=O)[C@H](CCCNC(=N)N)NC(=O)[C@H](C)NC(=O)[C@H](Cc1ccccc1)NC(=O)[C@H](CCC(=O)O)NC(=O)[C@H](CCC(=O)O)NC(=O)[C@H](CC(=O)O)NC(=O)[C@H](CC(=O)O)NC(=O)[C@H](Cc1c[nH]cn1)NC(=O)[C@H](Cc1c[nH]c2ccccc12)NC(=O)[C@H](C)NC(=O)[C@@H](N)CCSC)C(=O)NCCCCC(NC(=O)C(CCCCNC(=O)CCCCCNC(=O)[C@H](CCCNC(=N)N)NC(=O)[C@H](CCCNC(=N)N)NC(=O)[C@H](CCCNC(=N)N)NC(=O)[C@H](CCCNC(=N)N)NC(=O)[C@H](C)NC(=O)[C@H](Cc1ccccc1)NC(=O)[C@H](CCC(=O)O)NC(=O)[C@H](CCC(=O)O)NC(=O)[C@H](CC(=O)O)NC(=O)[C@H](CC(=O)O)NC(=O)[C@H](Cc1c[nH]cn1)NC(=O)[C@H](Cc1c[nH]c2ccccc12)NC(=O)[C@H](C)NC(=O)[C@@H](N)CCSC)NC(=O)CCCCCNC(=O)[C@H](CCCNC(=N)N)NC(=O)[C@H](CCCNC(=N)N)NC(=O)[C@H](CCCNC(=N)N)NC(=O)[C@H](CCCNC(=N)N)NC(=O)[C@H](C)NC(=O)[C@H](Cc1ccccc1)NC(=O)[C@H](CCC(=O)O)NC(=O)[C@H](CCC(=O)O)NC(=O)[C@H](CC(=O)O)NC(=O)[C@H](CC(=O)O)NC(=O)[C@H](Cc1c[nH]cn1)NC(=O)[C@H](Cc1c[nH]c2ccccc12)NC(=O)[C@H](C)NC(=O)[C@@H](N)CCSC)C(N)=O (stereo partly drawn) | – | C57BL/6 mouse female, small intestine | 3 h | reference: total dose | tissue distribution | 15.8% |
| O=C1NC2(CC2)COc2ncc(F)cc2[C@H]2COCCN2c2ccn3ncc1c3n2 | – | Sprague-Dawley rat, female, blood | oral, 5 mg/kg/day, end of treatment, 4-week repeated-dose toxicity | reference: red blood cells | reticulocytes | 1.61 ± 0.59% |
| COc1cnc2cccc(N3CCc4c(cc(Cn5ccnc5)cc4-c4cn(C)nc4C(F)(F)F)C3=O)c2c1 | – | CD-1 mouse | intraperitoneal, 100 mg/kg once daily, day 5, dose-escalation tolerability | reference: day 1 | body weight change | 10.4% |
| CCCCCCCCCCCCCCCC(=O)N[C@@H](CCC(=O)NCCOCCOCCC(=O)NCCOCCOCCC(=O)NCCCC[C@H](NC(=O)[C@H](CC(=O)O)NC(=O)[C@H](CC(C)C)NC(=O)[C@H](Cc1ccc(O)cc1)NC(=O)[C@H](CCCCN)NC(=O)[C@H](CO)NC(=O)[C@H](Cc1ccc(O)cc1)NC(=O)[C@H](CC(=O)O)NC(=O)[C@H](CO)NC(=O)[C@@H](NC(=O)[C@H](Cc1ccccc1)NC(=O)[C@@H](NC(=O)CNC(=O)[C@H](CCC(N)=O)NC(=O)[C@@H](CO)NC(=O)[C@@H](N)Cc1c[nH]cn1)[C@@H](C)O)[C@@H](C)O)C(=O)N[C@@H](CCCNC(=N)N)C(=O)N[C@@H](CCCNC(=N)N)C(=O)N[C@@H](C)C(=O)N[C@@H](CCC(N)=O)C(=O)N[C@@H](CC(=O)O)C(=O)N[C@@H](Cc1ccccc1)C(=O)N[C@H](C(=O)N[C@@H](CCC(N)=O)C(=O)N[C@@H](Cc1c[nH]c2ccccc12)C(=O)N[C@@H](CC(C)C)C(=O)N[C@@H](CC(C)C)C(=O)N[C@@H](CC(N)=O)C(=O)N[C@H](C(=O)NCC(=O)NCC(=O)N1CCC[C@H]1C(=O)N[C@@H](CO)C(=O)N[C@@H](CO)C(=O)NCC(=O)N[C@@H](C)C(=O)N1CCC[C@H]1C(=O)N1CCC[C@H]1C(=O)N1CCC[C@H]1C(=O)N[C@@H](CO)C(N)=O)[C@@H](C)O)C(C)C)C(=O)O | item: ALT | rhesus monkey, male | subcutaneous, 20 µg/kg once daily, 28 days | – | serum enzyme activity | 53.3 ± 32.2 U/L |
| CC[C@H](C)[C@H](NC(=O)[C@H](CCCCN)NC(=O)CNC(=O)[C@H](CC(C)C)NC(=O)[C@H](Cc1ccccc1)NC(=O)[C@H](CCCCN)NC(=O)[C@H](CO)NC(=O)[C@H](Cc1ccccc1)NC(=O)[C@H](Cc1c[nH]c2ccccc12)NC(=O)[C@H](CCC(N)=O)NC(=O)[C@@H](NC(=O)[C@H](Cc1ccccc1)NC(=O)CCCCCNC(=O)CN1CCN(CC(=O)O)CCN(CC(=O)O)CCN(CC(=O)O)CC1)C(C)C)C(=O)N[C@@H](CCC(=O)O)C(=O)N1CCC[C@H]1C(=O)N[C@@H](CC(=O)O)C(=O)N[C@H](C(=O)N[C@@H](CO)C(=O)N[C@@H](CCC(N)=O)C(=O)N[C@H](C(=O)N[C@@H](CCC(N)=O)C(=O)N[C@@H](CC(=O)O)C(=O)N1CCC[C@H]1C(=O)N[C@@H](CC(N)=O)C(=O)N[C@@H](CC(=O)O)C(=O)N[C@@H](CCC(N)=O)C(=O)N[C@@H](Cc1ccc(O)cc1)C(=O)N[C@@H](CCC(=O)O)C(=O)N1CCC[C@H]1C(=O)N[C@@H](Cc1ccccc1)C(=O)O)C(C)C)C(C)C [copper-64 labelled] | – | C57BL/6 mice, spleen | vehicle, intratracheal instillation | – | tissue uptake | 0.77 ± 0.3 %ID/g |
| CC(C)[C@H]1NC(=O)[C@H](Cc2ccccc2)NC(=O)[C@@H](C(C)C)NC(=O)[C@@H](C)NC(=O)[C@H](CO)NC(=O)[C@@H](Cc2c(-c3ccc(-c4ccc5ccccc5c4)cc3)[nH]c3ccccc23)NC(=O)[C@@H](CO)NC1=O | – | female Sprague-Dawley rat, plasma | intraperitoneal, 20 mg/kg, single dose | – | AUC(0-t) | 3820 ng·h/mL |

Repeated from above:
| SMILES | assay | system | conditions | how to read | endpoint | value |
| --- | --- | --- | --- | --- | --- | --- |
| COc1cnc2cccc(N3CCc4c(cc(Cn5ccnc5)cc4-c4cn(C)nc4C(F)(F)F)C3=O)c2c1 | – | CD-1 mouse | intraperitoneal, 100 mg/kg once daily, day 5, dose-escalation tolerability | reference: day 1 | body weight change | 10.4% |
| CCCCCCCCCCCCCCCC(=O)N[C@@H](CCC(=O)NCCOCCOCCC(=O)NCCOCCOCCC(=O)NCCCC[C@H](NC(=O)[C@H](CC(=O)O)NC(=O)[C@H](CC(C)C)NC(=O)[C@H](Cc1ccc(O)cc1)NC(=O)[C@H](CCCCN)NC(=O)[C@H](CO)NC(=O)[C@H](Cc1ccc(O)cc1)NC(=O)[C@H](CC(=O)O)NC(=O)[C@H](CO)NC(=O)[C@@H](NC(=O)[C@H](Cc1ccccc1)NC(=O)[C@@H](NC(=O)CNC(=O)[C@H](CCC(N)=O)NC(=O)[C@@H](CO)NC(=O)[C@@H](N)Cc1c[nH]cn1)[C@@H](C)O)[C@@H](C)O)C(=O)N[C@@H](CCCNC(=N)N)C(=O)N[C@@H](CCCNC(=N)N)C(=O)N[C@@H](C)C(=O)N[C@@H](CCC(N)=O)C(=O)N[C@@H](CC(=O)O)C(=O)N[C@@H](Cc1ccccc1)C(=O)N[C@H](C(=O)N[C@@H](CCC(N)=O)C(=O)N[C@@H](Cc1c[nH]c2ccccc12)C(=O)N[C@@H](CC(C)C)C(=O)N[C@@H](CC(C)C)C(=O)N[C@@H](CC(N)=O)C(=O)N[C@H](C(=O)NCC(=O)NCC(=O)N1CCC[C@H]1C(=O)N[C@@H](CO)C(=O)N[C@@H](CO)C(=O)NCC(=O)N[C@@H](C)C(=O)N1CCC[C@H]1C(=O)N1CCC[C@H]1C(=O)N1CCC[C@H]1C(=O)N[C@@H](CO)C(N)=O)[C@@H](C)O)C(C)C)C(=O)O | item: ALT | rhesus monkey, male | subcutaneous, 20 µg/kg once daily, 28 days | – | serum enzyme activity | 53.3 ± 32.2 U/L |
